Measurements pooled from the literature.
Parts stem from different laboratories: compare values within a part only. Changes are numbered by the printed parent chain.

Block 1 — technique: RNA Bind-n-Seq; molecule type: RNA; sample: in vitro; concentration: not given; reference: input RNA pool; reading: higher = stronger binding
Target: RING finger protein unkempt homolog, zinc fingers 1-6, GST-SBP tag (UNK, Homo sapiens, UniProt Q9C0B0, residues 30-357)
Setting: RNA with constant flanks, human-mouse chimeric sites, ends assumed
Residues (chain): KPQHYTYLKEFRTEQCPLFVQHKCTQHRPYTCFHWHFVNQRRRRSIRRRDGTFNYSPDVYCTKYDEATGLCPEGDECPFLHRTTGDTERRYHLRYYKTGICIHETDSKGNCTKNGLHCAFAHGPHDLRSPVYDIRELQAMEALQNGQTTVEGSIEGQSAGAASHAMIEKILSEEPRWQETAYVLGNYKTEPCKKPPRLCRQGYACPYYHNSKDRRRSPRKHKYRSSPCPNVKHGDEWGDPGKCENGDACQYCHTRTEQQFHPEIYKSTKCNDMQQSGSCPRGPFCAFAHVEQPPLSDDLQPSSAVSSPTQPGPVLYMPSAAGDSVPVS
For `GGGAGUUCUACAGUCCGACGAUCCAGCCUCAGAGCCCUGACUUCCUGGAUAUUACCAACCCUAAAGCGGUAUUAGAAAAUGCAUUGAGAAACUUCGCCUGUCUGACGACUGGAGAUGUGAUUGCUAUCAACUACAAUGAGAAGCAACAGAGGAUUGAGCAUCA`, the bound/input enrichment was 0.519 ratio.
`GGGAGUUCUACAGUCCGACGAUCAAAGCCCAAGUAUUUUGAAAAAACUCGAACAGAUUUAACAAGGGUAGCCAGCUUGGAGUCUAGCAACUUUGCCAAUGGUUUACCAAUCUGGGGGCUUGUUUUUCUUUUCUUCUUUCAAAUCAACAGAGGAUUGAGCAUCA` gave a bound/input enrichment of 0.242 ratio.
`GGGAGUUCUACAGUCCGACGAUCAUUCCGAUUAUGGACACCGGUGAAAACCCAGAGGUUCCCUUCCCUCGGGACAUGAUUGACUUAGAGGCCAAUUUUGAGAAGAUUGAAAAUGAACUGAAGGAAAUCAACACUAACCAGGAACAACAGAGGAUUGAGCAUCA` has a bound/input enrichment of 0.122 ratio.
`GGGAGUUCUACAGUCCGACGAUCCCUGCUCAGAUCACCAUGAAAGUAAUCCAAGGCUUGUAUAGUGGGGUCACCACAGUGGAACUGGACACCCUGGCUGCUGAAACAGCUGCGACCUUGACCACGAAGCACCCUGACUAUGCCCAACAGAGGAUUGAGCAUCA` gave a bound/input enrichment of 0.125 ratio.
The bound/input enrichment of `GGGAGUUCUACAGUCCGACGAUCUGACAAGGGCACUGCAGAGCCAUGCCUUUCCUUGACAUACAGAAAAAGCUGGGCAUCAGCCUGGACCGAUGGUUGACGUUCCUAAGCGCAGAACAGCCCUAUAAGAAGGCUGGUCGAUGCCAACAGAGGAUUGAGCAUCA` is reported as 0.095 ratio.
`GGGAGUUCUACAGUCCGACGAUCCCUCUGCCCCGCUCUGCAGCCUGGGGACACUGGGCUGGGACCAGAAUCCAGCUUUCUUUUAAUAGUGUCAGUGUAACUGUAUCCCGUGACAUUUCAUUUUUUUUAAAUAGUGUAUUUUUUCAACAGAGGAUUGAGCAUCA` gave a bound/input enrichment of 6.77 ratio.
With `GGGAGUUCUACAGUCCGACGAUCACAGUUAUAUUGUUGAGUUUCAUUUUCAUAUAUUCUUGUAGUGUCUGCUUGCCUGUGACUUCUGGUAAAAUAAAAUAUUAAAAUUACAAUAUUUUAGCAUGGUAUUUAACAUUUUCUAAACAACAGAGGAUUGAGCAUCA` the bound/input enrichment was 1.46 ratio.
With `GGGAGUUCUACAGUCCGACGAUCCGGAGCCCUCCUCUCCCCCAGGCCCGAGAUAUAACCCACCAGUGCCUUUUGUCUUCCUGUCAGCUCUGUCAAUCACGCCUGUCCUCUCACGCCCACACCAAGUGCCCAAAGUGGGGAGGGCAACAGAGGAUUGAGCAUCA` the bound/input enrichment was 0.539 ratio.

Block 2 — technique: protein-binding microarray; molecule type: double-stranded DNA, one strand shown; sample: in vitro; concentration: not given; reading: higher = stronger binding
Target: Transcriptional repressor CTCF (CTCF, Homo sapiens, UniProt P49711, residues 1-727, full length assumed)
UniProt P49711, sequence (whole entry, looked up): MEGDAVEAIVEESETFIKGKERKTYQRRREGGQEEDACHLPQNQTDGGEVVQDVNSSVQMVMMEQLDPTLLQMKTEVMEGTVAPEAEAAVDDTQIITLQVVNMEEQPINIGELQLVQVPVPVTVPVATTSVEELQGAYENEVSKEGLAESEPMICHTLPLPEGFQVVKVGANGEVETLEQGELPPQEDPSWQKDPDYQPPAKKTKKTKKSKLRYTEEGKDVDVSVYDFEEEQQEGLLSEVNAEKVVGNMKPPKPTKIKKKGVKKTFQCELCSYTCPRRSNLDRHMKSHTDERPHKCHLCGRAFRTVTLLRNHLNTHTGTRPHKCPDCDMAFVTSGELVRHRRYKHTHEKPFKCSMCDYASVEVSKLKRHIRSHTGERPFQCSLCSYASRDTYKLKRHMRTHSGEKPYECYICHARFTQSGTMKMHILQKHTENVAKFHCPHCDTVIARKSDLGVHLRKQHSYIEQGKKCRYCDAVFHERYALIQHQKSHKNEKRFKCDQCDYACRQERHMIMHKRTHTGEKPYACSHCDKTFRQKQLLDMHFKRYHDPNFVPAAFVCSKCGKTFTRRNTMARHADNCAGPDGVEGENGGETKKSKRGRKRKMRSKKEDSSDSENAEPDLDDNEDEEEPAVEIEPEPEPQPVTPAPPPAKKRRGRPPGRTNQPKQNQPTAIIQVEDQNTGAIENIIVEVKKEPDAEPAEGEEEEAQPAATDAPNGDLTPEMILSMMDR
Setting: k-mer, scored over probes, only values ≥0.25
The E-score of `GTAAATTA` is reported as 0.262.
For `GTTAAATA`, the E-score was 0.278.
With `ATCTGCAT` the E-score was 0.264.
`TGGTATAA` has an E-score of 0.271.
The E-score of `TGCGCAAA` is reported as 0.378.
For `ATATCATA`, the E-score was 0.315.
For `TGCGCGAA`, the E-score was 0.332.
For `ATACTTTA`, the E-score was 0.262.
With `CATATACG` the E-score was 0.287.
For `GAATAGTA`, the E-score was 0.274.
`GAAATGAA` has an E-score of 0.292.
`TTAATAAA` has an E-score of 0.312.
With `TACGCGCA` the E-score was 0.32.
With `GTATAGTA` the E-score was 0.262.
`GTTATTTA` gave an E-score of 0.259.
The E-score of `CCCACCCC` is reported as 0.331.
`AATTTAAA` has an E-score of 0.301.
The E-score of `ATGTAATA` is reported as 0.378.
`CTACTATA` gave an E-score of 0.34.

Block 3 — technique: RNA Bind-n-Seq; molecule type: RNA; sample: in vitro; concentration: 365 nM; reference: no-protein control; reading: higher = stronger binding
Target: RNA binding protein fox-1 homolog 2, RRM domain, GST-SBP tag (RBFOX2, Homo sapiens, UniProt O43251-10, residues 100-194)
Setting: natural RNA segment, single round, ends assumed
Construct (chain): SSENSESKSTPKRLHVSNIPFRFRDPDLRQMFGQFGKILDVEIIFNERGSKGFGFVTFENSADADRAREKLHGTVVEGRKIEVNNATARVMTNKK
`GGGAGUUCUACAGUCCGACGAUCGCCCUUGUCAGCACUUCUUUUUUUAUACCUCCUCUCAAGGCCACGUAAGUUACCUAGCUCUACCUGACUGUGGAUAAAAGACAGUGCUCUACCCACCUGGUGGACCCAGGUGGAAUUCUCGGGUGCCAA`: “RBNS enrichment (R)” 0.292.
`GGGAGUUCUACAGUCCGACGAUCUCGGGAUUCCCUGGUGGGCCUCGACGUCCCUUGGAUCAGAGGUCAUCCCUUCCUCCUCUCCUGGAAACAGACAGGGAGAAGUUGAGCAGGUAUCAACUAGGGGAGGAGAGUGGAAUUCUCGGGUGCCAA`: “RBNS enrichment (R)” 0.247.
`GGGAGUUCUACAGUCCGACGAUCACACCCACAGCAGCAAGAAUGACCUCCUGCAGCAGAUAUUCCACCUGUAAUAGCACUUUGGAACUGUGGGCAAAACCAAAAGGCUAGUGUUUCCAUUUAUUCCAUGUUGGUGGAAUUCUCGGGUGCCAA` — result for “RBNS enrichment (R)”: 0.826.
Under “RBNS enrichment (R)”, `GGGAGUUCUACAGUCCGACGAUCACCAUCCCUGAUGGCAGAACUCCCACAACCACAUGUAUUUAUUCCUCUGUCCUAAACCGUCCCCUCCUUCCCUCACCCCCAGCACAGGGGGAUUCUGAGCAGUGCCUCUUUGGAAUUCUCGGGUGCCAA` is recorded as 1.08.
Under “RBNS enrichment (R)”, `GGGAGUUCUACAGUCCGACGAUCUAUUCUCAGCACGGGUGUAUGGGGACCUCAUUACCUAUUUUUUUCAUCAUUUACCCUAGGUAAGAACUUUGAUCACUGCUUACUAGGUAAAGAAUGUUUGUACUGUUCCAUGGAAUUCUCGGGUGCCAA` is recorded as 0.917.
`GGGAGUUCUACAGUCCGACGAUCCUGCUUUUCCACAAGGAAUCUCCGUAGAAUUUUGCGGCGACCAGAUGGUGCAUAGGUCUGGAAGGUCUGAUCUCCCUUGGUCUUCCAUGGGAUGGUUAGUGUGGAGGGGAUGGAAUUCUCGGGUGCCAA`: “RBNS enrichment (R)” 0.707.
Under “RBNS enrichment (R)”, `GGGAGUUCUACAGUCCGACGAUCUGUGGCCUGGCAUCGCAUCGUGGUGUGUCAAUGCCACAAAAUCGUGUGUCCGUGGAACCAGUCCUAGCCGCGUGUGACAGUCUUGCAUUCUGUUUGUCUCGUGGGGGGAGUGGAAUUCUCGGGUGCCAA` is recorded as 1.45.
`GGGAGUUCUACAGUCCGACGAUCUUUGUACAACUCUUACUUUCUAUGUGAUAAGAAUGCAAUAUGUGCCUCUUUCCCCUACUAGCCCCAUGUGACACAUAUUUUUCACACUAUGUGGCAUCAACCAGUGCCAUUGGAAUUCUCGGGUGCCAA`: “RBNS enrichment (R)” 14.6.

Block 4 — target: CCNA1, cyclin fold, Cln2 fusion (human); technique: yeast growth competition, sequencing; sample: yeast; setting: weak parent motif; reference: not given; reading: higher = stronger binding
Starting sequence: INSM1 docking peptide (human); PKAIRKLHFEDEV; partner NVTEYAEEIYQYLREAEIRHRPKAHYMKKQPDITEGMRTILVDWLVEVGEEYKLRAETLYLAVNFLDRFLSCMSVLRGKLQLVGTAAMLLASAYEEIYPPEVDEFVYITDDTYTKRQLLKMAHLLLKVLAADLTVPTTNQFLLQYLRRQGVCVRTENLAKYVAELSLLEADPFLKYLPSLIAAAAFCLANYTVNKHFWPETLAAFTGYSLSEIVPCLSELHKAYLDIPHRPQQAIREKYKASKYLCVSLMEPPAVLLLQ
`I4Q` — result for “normalised enrichment score”: 1.67.
`K6W` — result for “normalised enrichment score”: 0.0383.
Under “normalised enrichment score”, `K6Y` is recorded as 0.311.
`D11Q` — result for “normalised enrichment score”: 0.568.
Under “normalised enrichment score”, `A3R` is recorded as 0.498.
For `K2S`, “normalised enrichment score” read 0.687.
`E10R` — result for “normalised enrichment score”: 0.127.
Under “normalised enrichment score”, `K6F` is recorded as -0.154.
`K6P`: “normalised enrichment score” -0.396.
`E10Q` — result for “normalised enrichment score”: 0.432.
`K6S`: “normalised enrichment score” 0.194.
For `F9T`, “normalised enrichment score” read 0.0402.
`F9A` — result for “normalised enrichment score”: -0.39.
For `H8G`, “normalised enrichment score” read -0.119.
`R5D`: “normalised enrichment score” 0.217.
For `D11Y`, “normalised enrichment score” read 0.459.
`E12D` — result for “normalised enrichment score”: 0.855.
For `L7F`, “normalised enrichment score” read 0.271.
`D11W`: “normalised enrichment score” 0.223.
Under “normalised enrichment score”, `K6A` is recorded as 0.548.
Under “normalised enrichment score”, `K2N` is recorded as 0.388.
For `A3S`, “normalised enrichment score” read 0.446.
`E10N`: “normalised enrichment score” 0.457.
`A3N`: “normalised enrichment score” -0.0154.

Excerpt of the above (block 2):
With `CATATACG` the E-score was 0.287.
For `GAATAGTA`, the E-score was 0.274.
`GAAATGAA` has an E-score of 0.292.
`TTAATAAA` has an E-score of 0.312.
With `TACGCGCA` the E-score was 0.32.
